Results pooled from the literature.
Protocols differ between the studies behind these lines.
Organism: Staphylococcus aureus

SMILES	assay	test system	conditions	MIC
COc1ccc2ccc3c(c2c1)C=[N+]1C2CCCCC2[N+]2=Cc4c(F)cccc4[O][Au-]21[O]3.F[P-](F)(F)(F)(F)F (stereo not shown)	bacterial growth, broth microdilution	vancomycin-intermediate	24 h	> 20 µM
CCCCc1ccc(N2C(=O)/C(=N\NC(=N)N)c3cc(C)ccc32)cc1	broth microdilution	BAA41 MRSA	18 h, 37 °C	3 µg/mL
CC[C@H](C)[C@H](NC(=O)[C@H](CCCNC(=N)N)NC(=O)[C@H](CC(C)C)NC(=O)[C@H](CC(C)C)NC(=O)[C@H](C)NC(=O)[C@@H](NC(=O)[C@H](CCCCN)NC(=O)[C@H](CCCCN)NC(=O)[C@H](C)NC(=O)[C@@H](NC(=O)[C@H](Cc1c[nH]c2ccccc12)NC(=O)[C@@H](NC(=O)[C@H](Cc1ccc(O)cc1)NC(=O)[C@H](Cc1ccccc1)NC(=O)[C@H](CC(=O)O)NC(=O)[C@H](Cc1ccc(O)cc1)NC(=O)[C@@H](NC(=O)[C@H](CC(C)C)NC(=O)[C@H](CO)NC(=O)[C@H](C)NC(=O)[C@H](C)NC(=O)[C@@H](NC(=O)[C@@H](NC(=O)[C@@H](N)CC(C)C)[C@@H](C)CC)C(C)C)C(C)C)[C@@H](C)O)[C@@H](C)CC)C(C)C)C(=O)N[C@@H](C)C(=O)N[C@@H](CCCCN)C(=O)N[C@@H](CCCCN)C(=O)N[C@H](C(=O)N[C@@H](CC(C)C)C(=O)N[C@@H](Cc1ccc(O)cc1)C(=O)N[C@@H](CC(C)C)C(=O)N[C@@H](C)C(=O)N[C@@H](CCCNC(=N)N)C(=O)N[C@@H](CC(N)=O)C(=O)N[C@@H](C)C(=O)O)C(C)C		ATCC 25923	24 h	4 µM
CC[C@H](C)[C@@H]1NC(=O)CNC(=O)[C@H](CCCCN)NC(=O)[C@H](C)NC(=O)[C@H](CCC(=O)O)NC(=O)[C@H](Cc2ccccc2)NC(=O)[C@H](CO)NC(=O)[C@H](CC(C)C)NC(=O)[C@H](C(C)C)NC(=O)[C@H](CC(=O)O)NC(=O)[C@@H](NC(=O)[C@@H](NC(=O)[C@@H](N)C(C)C)[C@@H](C)O)CSSC[C@@H]2NC(=O)[C@H](CO)NC(=O)CNC(=O)CNC(=O)[C@H](CCCCN)NC(=O)[C@H](CCCCN)NC(=O)[C@H](CCCNC(=N)N)NC(=O)[C@H](CC(C)C)NC(=O)[C@H](C)NC(=O)[C@H]([C@@H](C)CC)NC(=O)[C@@H]3CSSC[C@@H](C(=O)N[C@@H](CCCNC(=N)N)C(=O)N[C@@H](CC(N)=O)C(=O)O)NC(=O)[C@H](C(C)C)NC(=O)[C@H](CSSC[C@H](NC(=O)[C@H](C)NC(=O)[C@H](CO)NC(=O)[C@H](Cc4c[nH]cn4)NC(=O)[C@H](CC(N)=O)NC(=O)[C@H](C(C)C)NC(=O)[C@H](C)NC1=O)C(=O)N[C@@H](C)C(=O)N[C@@H](CC(C)C)C(=O)N[C@@H](Cc1c[nH]cn1)C(=O)N3)NC(=O)[C@H](C(C)C)NC(=O)CNC(=O)[C@H](CC(N)=O)NC(=O)[C@H](CCC(N)=O)NC2=O	broth microdilution	KCTC 1621	16 h, 37 °C	0.8 µM
O=[N+]([O-])c1ccc2c(c1)C=[N+]1N3C(=[O+][Cu-2]1([Cl])[O]2)c1ccccc1NC3c1cc([N+](=O)[O-])ccc1O (stereo not shown)	broth microdilution	MRSA clinical isolate SA 3202	24 h, 37 °C	16 µg/mL
CCCCCCCCCCCCCCCCCCSCC1OC(OC2C(N)CC(N)C(OC3OC(CN)C(O)CC3N)C2O)C(O)C(N)C1O (stereo not shown)		NorA		> 150 µg/mL
CC[C@@H](C)[C@H](NC(=O)[C@H](C)NC(=O)[C@H](CCCCN)NC(=O)[C@H](CC(C)C)NC(=O)[C@H](C)NC(=O)[C@@H](NC(=O)[C@H](Cc1c[nH]cn1)NC(=O)[C@H](CC(C)C)NC(=O)[C@@H](NC(=O)[C@@H](NC(=O)[C@H](CCCCN)NC(=O)[C@H](CCCCN)NC(=O)[C@H](C)NC(=O)[C@H](CO)NC(=O)[C@H](CCCCN)NC(=O)[C@H](Cc1ccccc1)NC(=O)[C@@H](NC(=O)[C@H](CCCCN)NC(=O)[C@H](CC(C)C)NC(=O)[C@H](Cc1ccccc1)NC(=O)[C@H](CO)NC(=O)[C@H](CCCCN)NC(=O)[C@H](Cc1c[nH]c2ccccc12)NC(=O)[C@H](CCCCN)NC(C)=O)[C@@H](C)O)[C@@H](C)O)C(C)C)[C@@H](C)O)C(=O)N[C@@H](CO)C(=O)N[C@@H](CO)C(N)=O	broth dilution	ATCC 25923, Mueller-Hinton broth	24 h, 37 °C	8 µg/mL
N=C(N)NCCC[C@@H]1NC(=O)[C@H](CCCNC(=N)N)NC(=O)[C@H](CCCNC(=N)N)NC(=O)[C@H](Cc2c[nH]c3ccccc23)NC(=O)[C@H](Cc2c[nH]c3ccccc23)NC(=O)[C@H](Cc2c[nH]c3ccccc23)NC(=O)[C@H](CCCNC(=N)N)NC1=O	broth microdilution	MRSA ATCC 43300	37 °C	18.5 µg/mL
CC(C)C[C@H](NC(=O)[C@H](C)NC(=O)CNC(=O)[C@@H](NC(=O)[C@@H](NC(=O)[C@H](CCCCN)NC(=O)[C@H](CCCCN)NC(=O)[C@H](CC(C)C)NC(=O)[C@H](CC(C)C)NC(=O)[C@H](CCCCN)NC(=O)[C@H](CC(C)C)NC(=O)[C@H](CC(C)C)NC(=O)[C@@H](N)CCCCN)C(C)C)C(C)C)C(=O)NCC(N)=O		ATCC 43300, CAMHB	18 h, 37 °C	22 µM
C/C(=N\NC(=N)N)c1nnn(-c2ccc(S(=O)(=O)NCC(C)C)cc2)c1C	microbial growth, broth dilution	MRSA USA300	drug-resistant strain	4 µg/mL
CC(C)C[C@H](NC(=O)[C@H](CCCCN)NC(=O)[C@H](C)NC(=O)[C@H](CC(C)C)NC(=O)[C@H](CCCCN)NC(=O)[C@H](CCC(N)=O)NC(=O)[C@H](CCCCN)NC(=O)[C@H](CC(C)C)NC(=O)[C@H](CCCCN)NC(=O)[C@H](CCC(N)=O)NC(=O)[C@H](CC(C)C)NC(=O)[C@H](CCCCN)NC(=O)[C@H](C)NC(=O)[C@H](CCCCN)NC(=O)[C@H](CC(C)C)NC(=O)[C@H](CCCCN)NC(=O)[C@H](C)NC(=O)[C@H](CC(C)C)NC(=O)[C@H](CCCCN)NC(=O)[C@H](CCC(N)=O)NC(=O)[C@@H](N)CCCCN)C(N)=O		ATCC 6538		inactive
COc1ccc2c(c1CC=C(C)C)O[C@H]1c3cc(CC=C(C)C)c(O)cc3OC[C@@H]21				128 µg/mL
CCCCCCCCCCCCCC(=O)N[C@H](CCN)C(=O)N[C@@H]1C(=O)N[C@@H](CCN)C(=O)N[C@@H](CC(C)C)C(=O)N[C@@H](CCN)C(=O)N[C@H](Cc2ccccc2)C(=O)N[C@@H](CC(C)C)C(=O)N[C@@H](CCN)C(=O)N[C@H](CCN)C(=O)N[C@@H](C(C)C)C(=O)N[C@@H](CC(=O)O)C(=O)O[C@@H]1C	broth microdilution	ATCC BAA-44, methicillin-resistant MDR		2 µg/mL
CC[C@H](C)[C@@H]1NC(=O)[C@@H]([C@@H](C)O)NC(=O)CNC(=O)[C@H](CC(=O)O)NC(=O)CNC(=O)[C@H](CC(=O)O)NC(=O)CNC(=O)[C@H]2CCCCN2C(=O)[C@@H](NC(=O)[C@H](CC(N)=O)NC(=O)/C=C/CCCCCCCCCC(C)C)CNC(=O)[C@@H]2CCCN2C1=O		MRSA USA300	16 h, 37 °C, added: Ca2+ 10 mM	4 µg/mL
CCCCCCCCCCCCC(=O)O.O=C1CCCC2C3CCCN4CCCC(CN12)C34 (stereo not shown)	bacterial growth, broth dilution	ATCC 29213		inactive
CN1C(=O)[C@@H]2NC(=O)[C@@H]3NC(=O)[C@@H](c4ccc(O)cc4)NC(=O)[C@H](NC(=O)C(NCc4cccc(O)c4O)c4ccc(O)cc4)Cc4c[nH]c5cc(ccc45)-c4cc3cc(c4O)Oc3ccc(cc3)C[C@H]1C(=O)N[C@@H](C(=O)O)c1ccc(O)c(c1)Oc1ccc2cc1 (stereo partly shown)		ATCC 33591 MRSA, Mueller-Hinton broth		16 µg/mL
C=Cc1cc(OC)c2c(c1)c(=O)oc1c2cc(OC)c2c(O)ccc([C@@H]3O[C@H](C)[C@H](O)[C@@](C)(O)[C@H]3O)c21	microbial growth, broth dilution	MRSA USA300		0.5 µg/mL
CCO[C@H]1[C@H](O)[C@@H](N)[C@@H](O[C@H]2[C@H](O[C@@H]3O[C@H](CO)[C@@H](O[C@H]4O[C@@H](CN)[C@@H](O)[C@H](O)[C@H]4N)[C@H]3O)[C@@H](O)[C@H](N)C[C@@H]2N)O[C@@H]1CO	broth microdilution	MRSA isolate AG 042		8 to 16 µg/mL
c1ccc(CCNC2CCCc3c2[nH]c2ccc(C4CCCCC4)cc32)cc1 (stereo not shown)	broth microdilution	ATCC 29213, cation-adjusted Mueller-Hinton broth		2 µg/mL
CC[C@H](C)[C@H](N)C1=N[C@H](C(=O)N[C@@H](CC(C)C)C(=O)N[C@H](CCC(=O)O)C(=O)N[C@@H](Cc2ccccc2)C(=O)N[C@H]2CCCCNC(=O)[C@H](CC(N)=O)NC(=O)[C@@H](CC(=O)O)NC(=O)[C@H](Cc3c[nH]cn3)NC(=O)[C@@H](Cc3ccccc3)NC(=O)[C@H]([C@@H](C)CC)NC(=O)[C@@H](CCCN)NC2=O)CS1		USA300 MRSA	18 h, 37 °C, added: ZnSO4 0.3 mM	4 µg/mL
CC[C@H](C)[C@H](NC(=O)[C@@H](NC(=O)CN)C(C)C)C(=O)N[C@@H](Cc1ccccc1)C(=O)N[C@@H](CC(N)=O)C(=O)N[C@@H](C)C(=O)N[C@@H](CC(C)C)C(=O)N[C@@H](CCCCN)C(=O)NCC(=O)N[C@H](C(=O)N[C@@H](C)C(=O)N[C@@H](CCCCN)C(=O)N[C@H](C(=O)N[C@H](C(=O)N[C@@H](C)C(=O)N[C@@H](C)C(=O)N[C@@H](CCC(N)=O)C(=O)N[C@@H](CC(C)C)C(=O)N[C@@H](CC(C)C)C(=O)N[C@@H](CCCCN)C(=O)N[C@@H](CCCCN)C(=O)N[C@@H](C)C(=O)N[C@@H](CCCNC(=N)N)C(=O)N[C@H]1CSSC[C@@H](C(=O)O)NC(=O)[C@H](CO)NC(=O)[C@H](CCCCN)NC(=O)[C@H](CC(=O)O)NC(=O)[C@H](CC(C)C)NC(=O)[C@H](CCCCN)NC1=O)C(C)C)[C@@H](C)O)C(C)C		MRSA NCTC 12493, Mueller-Hinton broth	added: CaCl2 2.5 mM	2 µM
CC[C@H](C)[C@H](NC(=O)[C@H](NC(=O)[C@@H](CCCNC(=N)N)NC(=O)[C@@H](N)COC(=O)[C@@H](NC(=O)[C@@H](Cc1ccccc1)NC)[C@@H](C)CC)[C@@H](C)CC)C(=O)N[C@@H](CO)C(=O)N[C@H]1C(=O)N[C@@H](C)C(=O)N[C@@H](CC(C)C)C(=O)N[C@@H]([C@@H](C)CC)C(=O)O[C@H]1C	broth microdilution	ATCC 700698, MRSA, brain heart infusion broth	16 h, 37 °C	0.5 to 1 µg/mL

For quick reference, copied from above:
SMILES	assay	test system	conditions	MIC
COc1ccc2ccc3c(c2c1)C=[N+]1C2CCCCC2[N+]2=Cc4c(F)cccc4[O][Au-]21[O]3.F[P-](F)(F)(F)(F)F (stereo not shown)	bacterial growth, broth microdilution	vancomycin-intermediate	24 h	> 20 µM
CCCCc1ccc(N2C(=O)/C(=N\NC(=N)N)c3cc(C)ccc32)cc1	broth microdilution	BAA41 MRSA	18 h, 37 °C	3 µg/mL
CC[C@H](C)[C@H](NC(=O)[C@H](CCCNC(=N)N)NC(=O)[C@H](CC(C)C)NC(=O)[C@H](CC(C)C)NC(=O)[C@H](C)NC(=O)[C@@H](NC(=O)[C@H](CCCCN)NC(=O)[C@H](CCCCN)NC(=O)[C@H](C)NC(=O)[C@@H](NC(=O)[C@H](Cc1c[nH]c2ccccc12)NC(=O)[C@@H](NC(=O)[C@H](Cc1ccc(O)cc1)NC(=O)[C@H](Cc1ccccc1)NC(=O)[C@H](CC(=O)O)NC(=O)[C@H](Cc1ccc(O)cc1)NC(=O)[C@@H](NC(=O)[C@H](CC(C)C)NC(=O)[C@H](CO)NC(=O)[C@H](C)NC(=O)[C@H](C)NC(=O)[C@@H](NC(=O)[C@@H](NC(=O)[C@@H](N)CC(C)C)[C@@H](C)CC)C(C)C)C(C)C)[C@@H](C)O)[C@@H](C)CC)C(C)C)C(=O)N[C@@H](C)C(=O)N[C@@H](CCCCN)C(=O)N[C@@H](CCCCN)C(=O)N[C@H](C(=O)N[C@@H](CC(C)C)C(=O)N[C@@H](Cc1ccc(O)cc1)C(=O)N[C@@H](CC(C)C)C(=O)N[C@@H](C)C(=O)N[C@@H](CCCNC(=N)N)C(=O)N[C@@H](CC(N)=O)C(=O)N[C@@H](C)C(=O)O)C(C)C		ATCC 25923	24 h	4 µM
